Measurements pooled from the literature.
Compare with care: the assays were run in different laboratories.
Organism: Bacillus anthracis

SMILES | effect on | strain | time | quantity | value
CC(/C=C/C(O)=C1/C(=O)CNC1=O)=C\[C@@H](C)[C@H]1O[C@@]2(C)O[C@H](C(=O)[C@@H]3O[C@@]32CO)[C@@H]1C | – | 34F2 | – | MIC | 6.25 µM
CC1(C)S[C@@H]2[C@H](NC(=O)[C@H](NC(=O)C3=C(O)C(c4ccccc4F)NC3=O)c3ccccc3)C(=O)N2[C@H]1C(=O)O (some centres unmarked) | – | Sterne | – | MIC | 3.13 µg/mL
CN[C@@H]1[C@H](O)[C@H](NC)[C@H]2O[C@]3(O)[C@H](O[C@@H]2[C@H]1O)O[C@H](C)C[C@H]3NC(=O)Cc1cscn1 | microbial growth | STERNE34F2 | – | MIC | 1.6 µg/mL
Cc1cccc(C)c1SCC1OC(OC2C(N)CC(N)C(OC3OC(CN)C(O)CC3N)C2O)C(O)C(N)C1O (centres unmarked) | – | Sterne 34F2 | – | MIC | 37.5 µg/mL
CC(/C=C/C(O)=C1/C(=O)CNC1=O)=C\[C@@H](C)[C@H]1O[C@@]2(C)O[C@H](C[C@@H]3O[C@@]32C)[C@@H]1C | – | 34F2 | – | MIC | 25 µM
CN[C@@H]1[C@H](O)[C@H](NC)[C@H]2O[C@]3(O)[C@H](O[C@@H]2[C@H]1O)O[C@H](C)C[C@H]3NC(=O)Cc1cc(Cl)ccn1 | microbial growth | STERNE34F2 | – | MIC | 25 µg/mL
CCCCCCCCCCCC[S+]([O-])CC1OC(OC2C(N)CC(N)C(OC3OC(CN)C(O)CC3N)C2O)C(O)C(N)C1O (mixture of isomers) | – | Sterne 34F2 | – | MIC | 2.3 µg/mL
ONCc1ccc(F)cc1 | – | Sterne 7700 pXO1-/pXO2- | 8 h | MIC50 | < 15 µg/mL
CCCCCCSCC1OC(OC2C(N)CC(N)C(OC3OC(CN)C(O)CC3N)C2O)C(O)C(N)C1O (centres unmarked) | – | Sterne 34F2 | – | MIC | 150 µg/mL
CN[C@@H]1[C@H](O)[C@H](NC)[C@H]2O[C@]3(O)[C@H](O[C@@H]2[C@H]1O)O[C@H](C)C[C@H]3NC(=O)CNC(C)(C)C | microbial growth | STERNE34F2 | – | MIC | 50 µg/mL
CC(C=CC(O)=C1C(=O)CNC1=O)=CC(C)C1OC2(C)OC(C1C)C(O)C1OC12C (centres unmarked) | – | 34F2 | – | MIC | 50 µM

A few entries again:
SMILES | effect on | strain | time | quantity | value
CN[C@@H]1[C@H](O)[C@H](NC)[C@H]2O[C@]3(O)[C@H](O[C@@H]2[C@H]1O)O[C@H](C)C[C@H]3NC(=O)CNC(C)(C)C | microbial growth | STERNE34F2 | – | MIC | 50 µg/mL
